Results collected from several papers.
Each line is one published result; not all experiments were run side by side. Several values in a cell are separate wells, animals, samples, runs or records. Numbers after ± are the reported error.
DRD2: D(2) dopamine receptor (DRD2, Homo sapiens, UniProt P14416)
UniProt P14416, sequence (whole entry, looked up): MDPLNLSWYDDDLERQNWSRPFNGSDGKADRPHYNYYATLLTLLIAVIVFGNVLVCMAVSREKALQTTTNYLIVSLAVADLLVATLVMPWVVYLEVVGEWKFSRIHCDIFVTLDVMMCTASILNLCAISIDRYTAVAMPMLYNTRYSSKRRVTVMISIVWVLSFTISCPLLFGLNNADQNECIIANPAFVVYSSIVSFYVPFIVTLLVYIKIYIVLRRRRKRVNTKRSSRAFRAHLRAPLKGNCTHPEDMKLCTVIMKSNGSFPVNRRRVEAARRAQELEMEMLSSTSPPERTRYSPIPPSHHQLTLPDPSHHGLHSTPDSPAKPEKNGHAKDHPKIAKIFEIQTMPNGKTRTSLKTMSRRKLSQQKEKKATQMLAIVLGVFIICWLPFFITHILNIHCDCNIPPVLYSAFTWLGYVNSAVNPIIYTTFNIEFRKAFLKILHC
Tubulin alpha-1B chain/TUBB2B: Tubulin alpha-1B chain/TUBB2B (Bos taurus, UniProt P81947+Q6B856)
UniProt Q6B856, sequence (whole entry, looked up): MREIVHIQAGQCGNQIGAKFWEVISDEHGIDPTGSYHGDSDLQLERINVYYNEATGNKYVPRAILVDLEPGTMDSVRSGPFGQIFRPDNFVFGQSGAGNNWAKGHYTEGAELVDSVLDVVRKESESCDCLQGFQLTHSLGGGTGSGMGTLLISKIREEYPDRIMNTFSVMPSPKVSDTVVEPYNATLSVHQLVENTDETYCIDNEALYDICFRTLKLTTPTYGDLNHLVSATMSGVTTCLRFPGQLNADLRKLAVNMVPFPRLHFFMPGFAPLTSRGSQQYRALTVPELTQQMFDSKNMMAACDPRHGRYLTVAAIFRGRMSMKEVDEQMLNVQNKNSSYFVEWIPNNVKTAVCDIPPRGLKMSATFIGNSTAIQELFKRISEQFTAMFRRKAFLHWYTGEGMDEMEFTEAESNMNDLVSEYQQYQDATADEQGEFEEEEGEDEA
UniProt P81947, sequence (whole entry, looked up): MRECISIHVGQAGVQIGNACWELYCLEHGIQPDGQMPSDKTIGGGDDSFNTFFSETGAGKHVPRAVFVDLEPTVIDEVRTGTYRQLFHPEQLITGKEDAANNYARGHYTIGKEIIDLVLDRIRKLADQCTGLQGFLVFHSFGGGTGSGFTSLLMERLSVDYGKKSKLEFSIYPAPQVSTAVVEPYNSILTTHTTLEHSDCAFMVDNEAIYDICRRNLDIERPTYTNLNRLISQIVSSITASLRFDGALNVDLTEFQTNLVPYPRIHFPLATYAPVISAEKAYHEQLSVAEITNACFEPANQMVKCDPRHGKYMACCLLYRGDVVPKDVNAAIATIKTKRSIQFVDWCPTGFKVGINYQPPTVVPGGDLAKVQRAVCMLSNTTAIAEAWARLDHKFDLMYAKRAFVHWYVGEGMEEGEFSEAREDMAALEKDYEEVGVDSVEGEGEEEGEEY
Kcnh1: Kcnh1 (Mus musculus, UniProt Q60603)
UniProt Q60603, sequence (whole entry, looked up): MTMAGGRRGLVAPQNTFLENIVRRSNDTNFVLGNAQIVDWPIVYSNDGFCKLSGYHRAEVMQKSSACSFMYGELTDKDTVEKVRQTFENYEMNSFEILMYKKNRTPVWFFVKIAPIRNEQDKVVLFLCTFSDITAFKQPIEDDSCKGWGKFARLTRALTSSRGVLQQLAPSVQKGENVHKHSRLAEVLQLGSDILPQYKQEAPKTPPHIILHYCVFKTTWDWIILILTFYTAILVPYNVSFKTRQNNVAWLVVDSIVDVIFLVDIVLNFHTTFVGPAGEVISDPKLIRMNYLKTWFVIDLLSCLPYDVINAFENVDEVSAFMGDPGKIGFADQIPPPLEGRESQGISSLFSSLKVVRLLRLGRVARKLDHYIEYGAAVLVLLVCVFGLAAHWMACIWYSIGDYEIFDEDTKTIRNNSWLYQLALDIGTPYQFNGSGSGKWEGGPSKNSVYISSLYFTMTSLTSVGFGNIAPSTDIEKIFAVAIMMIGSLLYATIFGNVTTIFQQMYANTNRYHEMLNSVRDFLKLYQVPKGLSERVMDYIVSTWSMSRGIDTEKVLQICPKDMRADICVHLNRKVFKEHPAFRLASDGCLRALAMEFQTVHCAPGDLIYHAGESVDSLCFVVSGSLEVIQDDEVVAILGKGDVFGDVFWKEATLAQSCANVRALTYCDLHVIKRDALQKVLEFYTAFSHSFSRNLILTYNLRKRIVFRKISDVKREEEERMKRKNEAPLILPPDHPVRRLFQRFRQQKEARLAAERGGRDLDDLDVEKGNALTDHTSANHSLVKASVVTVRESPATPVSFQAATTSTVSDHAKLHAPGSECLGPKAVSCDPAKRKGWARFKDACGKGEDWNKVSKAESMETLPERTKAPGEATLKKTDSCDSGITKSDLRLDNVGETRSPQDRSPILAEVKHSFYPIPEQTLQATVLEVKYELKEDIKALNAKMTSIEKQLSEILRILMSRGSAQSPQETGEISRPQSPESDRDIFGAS
Mc1r: Melanocyte-stimulating hormone receptor (Mc1r, Mus musculus, UniProt Q01727)
UniProt Q01727, sequence (whole entry, looked up): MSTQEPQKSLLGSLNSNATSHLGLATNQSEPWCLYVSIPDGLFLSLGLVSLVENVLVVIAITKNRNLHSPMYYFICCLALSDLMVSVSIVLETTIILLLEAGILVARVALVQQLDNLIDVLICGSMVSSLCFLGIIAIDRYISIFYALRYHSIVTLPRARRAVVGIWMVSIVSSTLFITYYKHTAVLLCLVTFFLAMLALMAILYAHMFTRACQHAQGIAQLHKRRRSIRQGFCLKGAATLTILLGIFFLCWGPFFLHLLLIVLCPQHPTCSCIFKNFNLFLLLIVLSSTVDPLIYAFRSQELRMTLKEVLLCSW
TLR8: Toll-like receptor 8 (TLR8, Homo sapiens, UniProt Q9NR97)
UniProt Q9NR97, sequence (whole entry, looked up): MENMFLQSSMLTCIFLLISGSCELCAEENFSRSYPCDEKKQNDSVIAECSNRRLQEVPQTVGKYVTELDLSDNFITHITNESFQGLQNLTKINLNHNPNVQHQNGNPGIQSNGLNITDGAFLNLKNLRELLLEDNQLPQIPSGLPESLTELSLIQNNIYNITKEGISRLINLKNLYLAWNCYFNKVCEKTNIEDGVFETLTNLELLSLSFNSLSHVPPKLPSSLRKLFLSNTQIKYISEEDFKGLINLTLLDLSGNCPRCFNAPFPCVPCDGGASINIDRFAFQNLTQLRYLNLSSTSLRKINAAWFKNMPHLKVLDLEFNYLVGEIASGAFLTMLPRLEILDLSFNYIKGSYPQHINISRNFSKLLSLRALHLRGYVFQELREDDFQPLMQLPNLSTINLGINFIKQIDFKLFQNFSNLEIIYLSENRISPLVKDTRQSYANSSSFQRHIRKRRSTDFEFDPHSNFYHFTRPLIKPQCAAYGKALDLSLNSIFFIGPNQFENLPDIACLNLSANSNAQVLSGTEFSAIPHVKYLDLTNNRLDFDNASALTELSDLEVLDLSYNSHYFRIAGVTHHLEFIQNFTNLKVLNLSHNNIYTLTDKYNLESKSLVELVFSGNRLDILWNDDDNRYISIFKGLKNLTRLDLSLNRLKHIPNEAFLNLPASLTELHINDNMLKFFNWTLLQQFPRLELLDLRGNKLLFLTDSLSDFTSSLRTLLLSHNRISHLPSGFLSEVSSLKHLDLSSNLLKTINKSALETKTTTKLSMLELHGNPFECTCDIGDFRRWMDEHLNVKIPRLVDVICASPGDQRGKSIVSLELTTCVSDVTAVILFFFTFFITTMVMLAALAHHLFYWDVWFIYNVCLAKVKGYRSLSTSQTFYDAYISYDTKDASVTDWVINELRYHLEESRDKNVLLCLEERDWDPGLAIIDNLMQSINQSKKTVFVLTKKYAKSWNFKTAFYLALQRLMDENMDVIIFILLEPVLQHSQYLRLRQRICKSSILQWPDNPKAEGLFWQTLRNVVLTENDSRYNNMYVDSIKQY
Ptger2: Prostaglandin E2 receptor EP2 subtype (Ptger2, Rattus norvegicus, UniProt Q62928)
UniProt Q62928, sequence (whole entry, looked up): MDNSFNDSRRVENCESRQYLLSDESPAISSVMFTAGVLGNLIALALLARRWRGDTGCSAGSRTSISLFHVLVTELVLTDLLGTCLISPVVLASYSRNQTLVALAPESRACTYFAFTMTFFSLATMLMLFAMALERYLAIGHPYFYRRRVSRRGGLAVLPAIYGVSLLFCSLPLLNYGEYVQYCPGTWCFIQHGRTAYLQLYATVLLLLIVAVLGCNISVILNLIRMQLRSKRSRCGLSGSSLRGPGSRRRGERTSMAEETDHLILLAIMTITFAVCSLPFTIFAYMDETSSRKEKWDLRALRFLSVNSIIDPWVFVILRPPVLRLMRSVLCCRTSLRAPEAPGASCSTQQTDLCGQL
UniProt Q9H3N8, sequence (whole entry, looked up): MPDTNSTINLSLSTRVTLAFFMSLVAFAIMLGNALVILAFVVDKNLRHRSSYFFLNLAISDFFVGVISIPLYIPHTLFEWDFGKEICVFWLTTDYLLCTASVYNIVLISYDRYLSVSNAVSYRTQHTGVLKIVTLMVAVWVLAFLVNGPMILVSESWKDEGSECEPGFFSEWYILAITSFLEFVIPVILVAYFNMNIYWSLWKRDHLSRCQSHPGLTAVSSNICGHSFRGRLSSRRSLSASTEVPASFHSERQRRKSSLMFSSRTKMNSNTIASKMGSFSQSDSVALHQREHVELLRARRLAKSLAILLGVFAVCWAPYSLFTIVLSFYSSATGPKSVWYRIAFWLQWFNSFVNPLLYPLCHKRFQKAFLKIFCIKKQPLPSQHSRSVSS
UniProt Q63371, sequence (whole entry, looked up): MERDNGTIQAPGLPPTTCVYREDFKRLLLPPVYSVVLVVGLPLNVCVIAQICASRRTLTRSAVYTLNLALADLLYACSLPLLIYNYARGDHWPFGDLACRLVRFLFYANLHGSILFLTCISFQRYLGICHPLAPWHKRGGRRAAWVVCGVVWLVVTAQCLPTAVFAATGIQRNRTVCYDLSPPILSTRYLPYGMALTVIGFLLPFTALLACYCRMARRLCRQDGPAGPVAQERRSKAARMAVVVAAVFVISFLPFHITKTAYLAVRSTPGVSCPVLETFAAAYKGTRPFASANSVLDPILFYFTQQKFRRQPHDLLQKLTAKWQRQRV

| Molecule | target | assay | test system | setting | scale | EC50 |
| --- | --- | --- | --- | --- | --- | --- |
| Cc1ccc2cccc(N3CCN(CCCCOc4ccc5sc(C)nc5c4)CC3)c2n1 | DRD2 | cAMP, agonist, luciferase |  |  |  | 15 nM |
| Thio-NADP sodium | PGC-1α/ERRα (human) | reporter gene, agonist, luciferase reporter |  |  |  | 20000 nM |
| CNc1nc2cc(OCCCCN3CCC(c4cccc(Cl)c4Cl)CC3)ccc2s1 | DRD2 | cAMP, agonist, luciferase |  |  |  | 50 nM |
| CCC1=C(O)c2c(oc(-c3csc4cccc(O)c34)cc2=O)C(CC)(CC)C1=O | Tubulin alpha-1B chain/TUBB2B |  |  |  |  | 2800 nM |
| O=c1c(O)c(-c2ccc(O)c(O)c2)oc2cc(O)cc(O)c12 | Kcnh1 | V1/2 shift, inside-out patch clamp | Xenopus oocytes |  |  | 2400 ± 1000 nM |
| CCc1nc2cc(OCCCCN3CCC(c4cccc(Cl)c4Cl)CC3)ccc2s1 | DRD2 | cAMP, agonist, luciferase |  |  |  | 98 nM |
| CCCC[C@H](NC(=O)[C@H](CO)NC(=O)[C@H](Cc1ccc(O)cc1)NC(=O)[C@H](CO)NC(C)=O)C(=O)N[C@@H](CCC(=O)O)C(=O)N[C@@H](C)C(=O)N[C@H](Cc1ccccc1)C(=O)N[C@@H](CCCNC(=N)N)C(=O)N[C@@H](Cc1c[nH]c2ccccc12)C(=O)NCC(=O)N[C@@H](CCCCN)C(=O)N1CCC[C@H]1C(=O)N[C@H](C(N)=O)C(C)C | Mc1r |  |  |  |  | 0.025 ± 0.001 nM |
| CCc1nc2cc(OCCCCN3CCN(c4cccc5c4OCCN5)CC3)ccc2s1 | DRD2 | cAMP, agonist, luciferase |  |  |  | 1 nM |
| CCCC[C@H](NC(=O)[C@H](CO)NC(=O)[C@H](Cc1ccc(O)cc1)NC(=O)[C@H](CO)NC(C)=O)C(=O)N[C@@H](CCC(=O)O)C(=O)N[C@@H](Cc1c[nH]cn1)C(=O)N[C@H](Cc1ccccc1)C(=O)N[C@@H](CCCNC(=N)N)C(=O)N[C@@H](C)C(=O)NCC(=O)N[C@@H](CCCCN)C(=O)N1CCC[C@H]1C(=O)N[C@H](C(N)=O)C(C)C | Mc1r |  |  |  |  | 4.05 ± 0.72 nM |
| Cc1nc(-c2ccc(OCC(C)C)c(C#N)c2)sc1C(=O)NC1CCOCC1 | Grm2 (Rattus norvegicus, UniProt P31421) | positive allosteric modulator, thallium flux | HEK293 GIRK | added: EC20 glutamate |  | 4800 nM |
| Cc1nc2cc(OCCCCN3CCC(c4cccc(Cl)c4Cl)CC3)ccc2s1 | DRD2 | cAMP, agonist, luciferase |  |  |  | 76 nM |
| CCCCOc1cc2ccccc2nc1N | TLR8 | reporter gene, agonist |  |  |  | 2180 nM |
| CCCCC[C@H](O)/C=C/[C@H]1CCC(=O)[C@@H]1C/C=C\CCCC(=O)O | Ptger2 | cAMP, agonist |  |  |  | 679 nM |
| CCCC[C@H](NC(=O)[C@H](CO)NC(=O)[C@H](Cc1ccc(O)cc1)NC(=O)[C@H](C)NC(C)=O)C(=O)N[C@@H](CCC(=O)O)C(=O)N[C@@H](Cc1c[nH]cn1)C(=O)N[C@H](Cc1ccccc1)C(=O)N[C@@H](CCCNC(=N)N)C(=O)N[C@@H](Cc1c[nH]c2ccccc12)C(=O)NCC(=O)N[C@@H](CCCCN)C(=O)N1CCC[C@H]1C(=O)N[C@H](C(N)=O)C(C)C | Mc1r |  |  |  |  | 0.016 ± 0.007 nM |
| CCc1nc2cc(OCCCCN3CCN(c4cccc5ccc(C)nc45)CC3)ccc2s1 | DRD2 | cAMP, agonist, luciferase |  |  |  | 62 nM |
| CSCC[C@H](NC(=O)[C@H](CO)NC(=O)[C@H](Cc1ccc(O)cc1)NC(=O)[C@H](CO)NC(C)=O)C(=O)N[C@@H](CCC(=O)O)C(=O)N[C@@H](Cc1c[nH]cn1)C(=O)N[C@@H](Cc1ccccc1)C(=O)N[C@@H](CCCNC(=N)N)C(=O)N[C@@H](Cc1c[nH]c2ccccc12)C(=O)N[C@@H](C)C(=O)N[C@@H](CCCCN)C(=O)N1CCC[C@H]1C(=O)N[C@H](C(N)=O)C(C)C | Mc1r |  |  |  |  | 25 ± 4.8 nM |
| N=C(N)NCCC[C@H](NC(=O)[C@H](Cc1ccccc1)NC(=O)[C@@H](N)Cc1cnc[nH]1)C(=O)N[C@@H](Cc1c[nH]c2ccccc12)C(=O)O | GPR139 (Homo sapiens, UniProt Q6DWJ6) | calcium mobilisation, agonist, Fluo-4 | CHO transfected | mean of triplicates |  | 4000 nM |
| CC(=O)N[C@@H](CO)C(=O)N[C@@H](Cc1ccc(O)cc1)C(=O)N[C@@H](CO)C(=O)N[C@@H](C)C(=O)N[C@@H](CCC(=O)O)C(=O)N[C@@H](Cc1c[nH]cn1)C(=O)N[C@@H](Cc1ccccc1)C(=O)N[C@@H](CCCNC(=N)N)C(=O)N[C@@H](Cc1c[nH]c2ccccc12)C(=O)NCC(=O)N[C@@H](CCCCN)C(=O)N1CCC[C@H]1C(=O)N[C@H](C(N)=O)C(C)C | Mc1r |  |  |  |  | 12400 ± 10800 nM |
| CCC#CC[C@H](C)[C@H](O)/C=C/[C@H]1CC(F)(F)C(=O)N1CCCCCCC(=O)O | Ptger2 | reporter gene, agonist |  |  |  | > 10000 nM |
| O=C(CCCN1CCCC1)Nc1cccc(NC(=O)c2cccc(NC(=O)Nc3cccc(C(=O)Nc4cccc(NC(=O)CCCN5CCCC5)c4)c3)c2)c1 | telomerase | inhibitor, TRAP-LIG |  |  | inactive up to solubility limit | > 50000 nM |

| Molecule | target | assay | test system | setting | scale | EC50 |
| --- | --- | --- | --- | --- | --- | --- |
| CNc1nc2cc(OCCCCN3CCN(c4cccc5c4OCCN5)CC3)ccc2s1 | DRD2 | cAMP, agonist, luciferase |  |  |  | 1.1 nM |
| N=C(NCCCCCCCCCCNC(N)=O)NCCCc1c[nH]cn1 | HRH3 (Homo sapiens, UniProt Q9Y5N1) | GTPγS binding, agonist |  | cell membranes |  | 26900 nM |
| Cc1ccc(S(=O)(=O)N2CCC[C@H]2c2ccc(F)cc2)cc1 (racemic) | Grm1 (Rattus norvegicus, UniProt P23385) | calcium response, positive allosteric modulator | BHK expressing mGluR1a | added: glutamate EC20 |  | 186 ± 45.6 nM |
| CC(C)C[C@H](NC(=O)[C@H](C)NC(=O)[C@H](CO)NC(=O)[C@@H]1CCCN1C(=O)[C@@H]1CCCN1C(=O)[C@H](CCC(N)=O)NC(=O)[C@H](CC(C)C)NC(=O)[C@@H](N)[C@@H](C)O)C(=O)N[C@@H](CCCNC(=N)N)C(=O)N[C@@H](CCCNC(=N)N)C(=O)N[C@@H](CCCNC(=N)N)C(=O)N[C@@H](Cc1c[nH]cn1)C(=O)N[C@@H](Cc1ccc(O)cc1)C(=O)N[C@@H](Cc1c[nH]cn1)C(=O)N[C@@H](Cc1c[nH]cn1)C(=O)N[C@@H](C)C(=O)N[C@@H](CC(C)C)C(=O)N1CCC[C@H]1C(=O)N1CCC[C@H]1C(=O)N[C@@H](CO)C(=O)N[C@@H](CCCNC(=N)N)C(=O)O | C3AR1 (Homo sapiens, UniProt Q16581) | β-arrestin recruitment, agonist |  |  |  | 68800 nM |
| CCCC[C@H](NC(=O)[C@H](CO)NC(=O)[C@H](Cc1ccc(O)cc1)NC(=O)[C@H](CO)NC(C)=O)C(=O)N[C@@H](CCC(=O)O)C(=O)N[C@@H](Cc1c[nH]cn1)C(=O)N[C@H](Cc1ccccc1)C(=O)N[C@@H](CCCNC(=N)N)C(=O)N[C@@H](Cc1c[nH]c2ccccc12)C(=O)NCC(=O)N[C@@H](CCCCN)C(=O)N1CCC[C@H]1C(=O)N[C@@H](C)C(N)=O | Mc1r |  |  |  |  | 0.058 ± 0.021 nM |
| CCCCC[C@H](O)/C=C/[C@H]1CC(F)(F)C(=O)N1CCCCCCC(=O)O | Ptger2 | reporter gene, agonist |  |  |  | 851 nM |
| BP(=O)(OC[C@H]1O[C@@H](n2ccc(=O)[nH]c2=O)[C@H](O)[C@@H]1O)OP(=O)(O)OP(=O)(O)OC[C@H]1O[C@@H](n2ccc(=O)[nH]c2=O)[C@H](O)[C@@H]1O (stereo partly shown) | P2Y purinoceptor 6 (Rattus norvegicus, UniProt Q63371) | calcium signal, agonist, fluorescence |  |  |  | 300 nM |
| CCC[C@H](C(=O)Nc1ccc(Br)cc1)n1nc(C)cc(Cc2cccc(OC)c2)c1=O | FPR2 (Homo sapiens, UniProt P25090) | β-arrestin recruitment, agonist |  |  |  | 6800 nM |
| CSCC[C@H](NC(=O)[C@H](C)NC(=O)[C@H](Cc1ccc(O)cc1)NC(=O)[C@H](CO)NC(C)=O)C(=O)N[C@@H](CCC(=O)O)C(=O)N[C@@H](Cc1c[nH]cn1)C(=O)N[C@@H](Cc1ccccc1)C(=O)N[C@@H](CCCNC(=N)N)C(=O)N[C@@H](Cc1c[nH]c2ccccc12)C(=O)NCC(=O)N[C@@H](CCCCN)C(=O)N1CCC[C@H]1C(=O)N[C@H](C(N)=O)C(C)C | Mc1r |  |  |  |  | 800 ± 130 nM |
| Oc1c(CN2CCN(c3ccccn3)CC2)cc(Cl)c2cccnc12 | DRD2 | cAMP, agonist, luciferase |  |  |  | 102 nM and 46 nM |
| CCC1=C(O)c2c(oc(-c3csc4c(O)cccc34)cc2=O)C(CC)(CC)C1=O | Tubulin alpha-1B chain/TUBB2B |  |  |  |  | 4100 nM |
| Cc1nc(N)sc1CCCNC(=N)NCCCCCCCCCCCCNC(=N)N | HRH4 (Homo sapiens, UniProt Q9H3N8) | GTPγS binding, agonist |  | cell membranes |  | 30200 nM |
| Nc1nc(F)nc2c1ncn2[C@@H]1O[C@H](COP(=O)(O)OP(=O)(O)OP(=O)(O)O)[C@@H](O)[C@@H]1O | Ribonucleoside-diphosphate reductase large subunit (Homo sapiens, UniProt P23921) |  |  |  |  | 4600 ± 800 nM |
| NC[C@H](O)c1ccc(O)c(O)c1 | ADRA2C (Homo sapiens, UniProt P18825) | G protein activation, agonist, BRET, item: Gαi2 | HEK293T, transfected | Emax below 50% |  | 0.4 ± 0.2 nM |
| CCCCc1cn2c(n1)c(N)nc1ccccc12 | TLR8 | reporter gene, agonist |  |  |  | 7990 nM |
| O=c1c(O)c(-c2ccc(O)c(O)c2)oc2cc(O)ccc12 | Kcnh1 | V1/2 shift, inside-out patch clamp | Xenopus oocytes |  |  | 3500 ± 400 nM |
| C=C1/C(=C\C=C2/CCC[C@]3(C)[C@@H]([C@H](C)CC(=O)OC)CC[C@@H]23)C[C@@H](O)C[C@@H]1O | Vitamin D3 receptor (VDR, Homo sapiens, UniProt P11473) | reporter gene, agonist, luciferase |  |  |  | 660 nM |
| CCCCCCCC(=O)OC[C@H](COP(=O)(O)O[C@@H]1[C@H](O)[C@H](O)[C@@H](OP(=O)(O)O)[C@H](OP(=O)(O)O)[C@H]1O)OC(=O)CCCCCCC | Trpv1 (Rattus norvegicus, UniProt O35433) | agonist, inside-out patch clamp | plasma membrane inner leaflet |  |  | ~0.03 mol % |
| CSCC[C@H](NC(=O)[C@H](CO)NC(=O)[C@H](Cc1ccc(O)cc1)NC(=O)[C@H](CO)NC(C)=O)C(=O)N[C@@H](CCC(=O)O)C(=O)N[C@@H](C)C(=O)N[C@@H](Cc1ccccc1)C(=O)N[C@@H](CCCNC(=N)N)C(=O)N[C@@H](Cc1c[nH]c2ccccc12)C(=O)NCC(=O)N[C@@H](CCCCN)C(=O)N1CCC[C@H]1C(=O)N[C@H](C(N)=O)C(C)C | Mc1r |  |  |  |  | 1070 ± 115 nM |
| CCC#CC[C@H](C)[C@H](O)/C=C/[C@H]1CCC(=O)N1CCCCCCC(=O)O | Ptger2 | cAMP, agonist |  |  |  | > 10000 nM |

A few entries again:
| Molecule | target | assay | test system | setting | scale | EC50 |
| --- | --- | --- | --- | --- | --- | --- |
| CNc1nc2cc(OCCCCN3CCN(c4cccc5c4OCCN5)CC3)ccc2s1 | DRD2 | cAMP, agonist, luciferase |  |  |  | 1.1 nM |
| N=C(NCCCCCCCCCCNC(N)=O)NCCCc1c[nH]cn1 | HRH3 (Homo sapiens, UniProt Q9Y5N1) | GTPγS binding, agonist |  | cell membranes |  | 26900 nM |
| Cc1ccc(S(=O)(=O)N2CCC[C@H]2c2ccc(F)cc2)cc1 (racemic) | Grm1 (Rattus norvegicus, UniProt P23385) | calcium response, positive allosteric modulator | BHK expressing mGluR1a | added: glutamate EC20 |  | 186 ± 45.6 nM |
| CC(C)C[C@H](NC(=O)[C@H](C)NC(=O)[C@H](CO)NC(=O)[C@@H]1CCCN1C(=O)[C@@H]1CCCN1C(=O)[C@H](CCC(N)=O)NC(=O)[C@H](CC(C)C)NC(=O)[C@@H](N)[C@@H](C)O)C(=O)N[C@@H](CCCNC(=N)N)C(=O)N[C@@H](CCCNC(=N)N)C(=O)N[C@@H](CCCNC(=N)N)C(=O)N[C@@H](Cc1c[nH]cn1)C(=O)N[C@@H](Cc1ccc(O)cc1)C(=O)N[C@@H](Cc1c[nH]cn1)C(=O)N[C@@H](Cc1c[nH]cn1)C(=O)N[C@@H](C)C(=O)N[C@@H](CC(C)C)C(=O)N1CCC[C@H]1C(=O)N1CCC[C@H]1C(=O)N[C@@H](CO)C(=O)N[C@@H](CCCNC(=N)N)C(=O)O | C3AR1 (Homo sapiens, UniProt Q16581) | β-arrestin recruitment, agonist |  |  |  | 68800 nM |
